Measured values collected from several papers.
Parts stem from different laboratories: compare values within a part only. “And” joins repeats or separate records; there may be more than shown.

Study 1 — technique: RNAcompete; molecule type: RNA; matrix: in vitro; tested at: 20 nM; setting: 7-mer, probes averaged, single round; baseline: mean of 7-mers; reading: higher = stronger binding
Target: PABPC1L2, full length, GST fusion (mouse, UniProt A0ABA7IW68)
Target sequence (chain): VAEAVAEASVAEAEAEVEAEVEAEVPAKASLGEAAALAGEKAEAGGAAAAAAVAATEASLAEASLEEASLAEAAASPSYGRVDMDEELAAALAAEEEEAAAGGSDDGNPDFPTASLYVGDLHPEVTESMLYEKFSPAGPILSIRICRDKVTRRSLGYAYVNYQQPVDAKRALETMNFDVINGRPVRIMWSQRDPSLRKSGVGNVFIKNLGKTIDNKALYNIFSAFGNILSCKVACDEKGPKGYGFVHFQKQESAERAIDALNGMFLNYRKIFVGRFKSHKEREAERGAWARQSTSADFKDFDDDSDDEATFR
For `CACGCCC`, the 7-mer Z-score was -0.242.
The 7-mer Z-score of `CAUUCGG` is reported as -0.05.
For `GGGUCGG`, the 7-mer Z-score was 0.142.
`UAGAGGA` has a 7-mer Z-score of 0.0279.
`UCUGAAG` has a 7-mer Z-score of -0.142.
`UACACGA` has a 7-mer Z-score of 0.0279.
`GUGACAA` gave a 7-mer Z-score of 0.238.
For `AUUCCAC`, the 7-mer Z-score was -0.159.

Study 2 — cell line: HEK-293T/ACE2; observed: pseudovirus infection; organism: VSV pseudotyped with SARS-CoV-2 spike; tested at: concentration not given; baseline: vehicle-treated
`CC[C@H]1OC(=O)[C@H](C)[C@@H](O[C@H]2C[C@@](C)(OC)[C@@H](O)[C@H](C)O2)[C@H](C)[C@@H](O[C@@H]2O[C@H](C)C[C@H](N(C)C)[C@H]2O)[C@](C)(O)C[C@@H](C)CN(C)[C@H](C)[C@@H](O)[C@]1(C)O` gave a GFP-positive cells of 64.1%.
`CC(C)C[C@H](NC(=O)[C@H](CCc1ccccc1)NC(=O)CN1CCOCC1)C(=O)N[C@@H](Cc1ccccc1)C(=O)N[C@@H](CC(C)C)C(=O)[C@@]1(C)CO1` gave a GFP-positive cells of 8.81%.
`CCC[C@H](NC(=O)[C@@H]1[C@H]2CCC[C@H]2CN1C(=O)[C@@H](NC(=O)[C@@H](NC(=O)c1cnccn1)C1CCCCC1)C(C)(C)C)C(=O)C(=O)NC1CC1` gave a GFP-positive cells of 103%.

Study 3 — observed: enzyme activity; mode: inhibitor; tested at: 20 µM; setting: hit confirmation
Target: Replicase polyprotein 1ab, main protease (rep, Severe acute respiratory syndrome coronavirus 2, UniProt P0DTD1)
`Cc1cc2nc3ccc(N(C)C)cc3[s+]c2cc1N` has an inhibition of 34.4%.
`NC[C@H](O)c1ccc(O)c(O)c1` has an inhibition of 75.2%.
`CCOC(=O)C1=C(C)NC(=S)NC1c1cccc(O)c1` (stereo not drawn) gave an inhibition of 17.1%.

Study 4 — observed: helicase activity; mode: inhibitor; technique: DTT high-content helicase; organism: SARS-CoV-2; tested at: 20 µM
Target: Replicase polyprotein 1ab, nsp13 helicase (rep, Severe acute respiratory syndrome coronavirus 2, UniProt P0DTD1)
`CC(=O)[O][Pt]([NH2])([Cl])([Cl])([NH]C1CCCCC1)[O]C(C)=O` gave an inhibition of -2.87%.
The inhibition of `CC(=O)OC[C@H]1O[C@@H]([S-])[C@H](OC(C)=O)[C@@H](OC(C)=O)[C@@H]1OC(C)=O.CCP(CC)CC.[Au+]` is reported as -5.15%.
The inhibition of `CC(C)n1nc(C#Cc2ccccc2)c2c(N)ncnc21` is reported as -7.22%.
With `O=C1C(c2ccccn2)=[N+]([O-])c2ccccc21` the inhibition was 3.81%.
`CCn1c(N)c(C(=O)NC)c(=O)c2ccc(C#C[C@@](C)(O)COC)nc21` gave an inhibition of 1.64%.
`CO/N=C(\C(=O)N[C@@H]1C(=O)N2C(C(=O)O)=C(CSC(=O)c3ccco3)CS[C@H]12)c1csc(N)n1` has an inhibition of 6.99%.
`CC(C)N[C@@H]1CCn2c(=O)[nH]c3cccc(c32)[C@H]1O` has an inhibition of 11.2%.
With `CCC(C)SSc1ncc[nH]1` (stereo not drawn) the inhibition was -13.9%.
`Oc1c(I)cc(I)c(O)c1I` has an inhibition of 0.18%.
`O=C1C=CC(=O)C2=C1C1c3ccccc3C2c2ccccc21` has an inhibition of -15%.
With `O=C(O)c1ccc(N2C(=O)/C(=C\c3ccc(-c4ccc([N+](=O)[O-])cc4)o3)C=C2c2ccccc2)cc1` the inhibition was 28.4%.
`O=C(O)c1ccc(SSc2ccc(C(=O)O)cn2)nc1` has an inhibition of -8.02%.
`N#CSc1cc(SC#N)c(N)nc1N` has an inhibition of -12%.
With `O=C1C=Cc2cc(Br)ccc2C1=O` the inhibition was -12.4%.
The inhibition of `CCOC(=O)C1=C(N)Oc2ccc(Br)cc2[C@H]1[C@H](C#N)C(=O)OCC` is reported as -9.28% and -11.6%.

Other studies, line by line
`CC(C)n1cnc(-c2ccc(F)cc2)c1-c1ncc(C(=O)Nc2ccc(N3CCN(C)CC3)cc2)[nH]1`: “patients with reproductive TEAE” 0% (phase 2a clinical trial; patients with idiopathic pulmonary fibrosis; 60 mg once daily).

Excerpt of the above (study 2):
`CC[C@H]1OC(=O)[C@H](C)[C@@H](O[C@H]2C[C@@](C)(OC)[C@@H](O)[C@H](C)O2)[C@H](C)[C@@H](O[C@@H]2O[C@H](C)C[C@H](N(C)C)[C@H]2O)[C@](C)(O)C[C@@H](C)CN(C)[C@H](C)[C@@H](O)[C@]1(C)O` gave a GFP-positive cells of 64.1%.
`CC(C)C[C@H](NC(=O)[C@H](CCc1ccccc1)NC(=O)CN1CCOCC1)C(=O)N[C@@H](Cc1ccccc1)C(=O)N[C@@H](CC(C)C)C(=O)[C@@]1(C)CO1` gave a GFP-positive cells of 8.81%.
`CCC[C@H](NC(=O)[C@@H]1[C@H]2CCC[C@H]2CN1C(=O)[C@@H](NC(=O)[C@@H](NC(=O)c1cnccn1)C1CCCCC1)C(C)(C)C)C(=O)C(=O)NC1CC1` gave a GFP-positive cells of 103%.
